Experimental data gathered from unrelated publications.
A part holds a random share of what one study measured.

Study 1
Target: Ras GTPase-activating protein-binding protein 1, full length (G3BP1, Homo sapiens, UniProt Q13283)
UniProt Q13283, sequence (whole entry, looked up): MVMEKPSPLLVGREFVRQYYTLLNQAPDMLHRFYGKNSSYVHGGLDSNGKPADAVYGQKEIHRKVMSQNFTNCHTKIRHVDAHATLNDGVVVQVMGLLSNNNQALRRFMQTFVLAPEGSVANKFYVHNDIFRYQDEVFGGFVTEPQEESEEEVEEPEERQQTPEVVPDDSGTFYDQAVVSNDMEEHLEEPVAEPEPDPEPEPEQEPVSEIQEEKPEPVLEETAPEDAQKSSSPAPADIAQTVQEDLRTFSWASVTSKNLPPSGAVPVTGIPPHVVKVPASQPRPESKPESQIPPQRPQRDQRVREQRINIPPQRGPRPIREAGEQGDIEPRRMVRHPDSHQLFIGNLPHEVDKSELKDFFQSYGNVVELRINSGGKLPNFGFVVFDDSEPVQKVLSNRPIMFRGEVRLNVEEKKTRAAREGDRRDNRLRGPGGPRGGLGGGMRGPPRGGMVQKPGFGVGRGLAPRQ
Method: RNA Bind-n-Seq
Molecule type: RNA
Medium: in vitro
Tested at: 200 nM
Notes: whole 134-nt RNA, ends assumed
Added: 150 mM LiCl
Relative to: input library
Direction: higher = stronger binding
Library: 7-deaza-guanosine replaces G
Constant ends, left off below: GGGAGUUCUACAGUCCGACGAUC … UGGAAUUCUCGGGUGUCAAGG
| Oligonucleotide | log2 enrichment |
| --- | --- |
| CAAGUCCUGUGCUACACAUCGUAUGUACCGAAUCGGAAAGGGGAAAGGGGAAAGGGAAAGUAUUAUGUUACGCCGUUCGGAUCUGCACUU | -0.332 |
| UCCUGUGCUACACAUCGUAUGUACCGAAUCGGGGUUUUUGGUUUUUGGGGUUUUUGGGGAAAGUAUUAUGUUACGCCGUUCGGAUCUGCA | -0.289 |
| UACUAUCAAACAAUCGGAAACCACGCGUCCUACUACAAAGAUGCUCUGCGGUUUUUGGGCUGUGUUGACAUCAAGGAUCUACCAGGUAAC | -1.9 |
| ACCAUACAGGUGGGCAUCUUUGGGAAGUGGGGCAAGGGGGGGAUAGGGAGGGGGGUAACACUUUGGGAACAGGUGGUCCCAGGUCGUUUC | 0.431 |
| UCAAGUCCUGUGCUACACAUCGUAUGUACCGAAUCGGGCCCGGGCCCGGCCCGGAAAGUAUUAUGUUACGCCGUUCGGAUCUGCACUUCC | -0.834 |

Study 2
Target: Interferon regulatory factor 3, full length, phosphomimetic (IRF3, Homo sapiens, UniProt Q14653, residues 1-427, S386D/S396D/S398D/S402D/T404D/S405D)
UniProt Q14653, sequence (whole entry, unmodified, looked up): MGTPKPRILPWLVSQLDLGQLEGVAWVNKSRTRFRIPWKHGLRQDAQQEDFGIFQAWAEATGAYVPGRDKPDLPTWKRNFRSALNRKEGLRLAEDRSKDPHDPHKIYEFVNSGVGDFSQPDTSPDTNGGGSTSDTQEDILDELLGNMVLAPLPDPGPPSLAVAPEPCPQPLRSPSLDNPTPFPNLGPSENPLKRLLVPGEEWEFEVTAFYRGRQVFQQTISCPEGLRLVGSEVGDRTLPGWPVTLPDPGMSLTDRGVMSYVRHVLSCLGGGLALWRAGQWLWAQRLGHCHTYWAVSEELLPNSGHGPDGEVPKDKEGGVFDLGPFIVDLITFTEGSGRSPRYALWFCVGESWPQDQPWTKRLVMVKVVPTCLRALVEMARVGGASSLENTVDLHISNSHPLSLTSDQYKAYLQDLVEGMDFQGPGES
Method: protein-binding microarray
Molecule type: double-stranded DNA, one strand shown
Medium: in vitro
Tested at: 2540 nM top
Notes: 60-bp whole probe
Added: salmon DNA 0.4 mg/ml
Relative to: random background probes
Direction: higher = stronger binding
Constant ends, left off below: GCCTAGCAC … GTCTTGATTCGCTTGACGCTGCTG
| Oligonucleotide | fitted relative affinity |
| --- | --- |
| GTCAAACTCACTCATGGCTTTGTGCTA | -0.378 z-score |
| TCATGTGTCAACTTTCTCACTGTGCTA | 0.58 z-score |
| TTAGGACTGCTTTTCCTTGAGTGCTAG | -0.103 z-score |
| AGACTTCTCCATTTTTCTAGGTGCTAG | 0.957 z-score |
| TTAGGTATCGGTATCGGTAAGTGCTAG | 5.26 z-score |
| TTAAGTATCCTTCTCCTTTAGTGCTAG | 8.23 z-score |
| TTGGGTATCGGTTTCGGTTAGTGCTAG | 7.91 z-score |
| GACGAACTGAGTATCCAGACGTGCTAG | 0.52 z-score |
| TTAGGTCTCGGGTTCGGTTAGTGCTAG | 0.177 z-score |
| GACGGAATGCTACTGCTGACGTGCTAG | -0.473 z-score |
| GTAGGTATCGACTATCGGTTAGTGCTA | 0.464 z-score |

Study 3
Target: RING finger protein unkempt homolog, zinc fingers 1-6, GST-SBP tag (UNK, Homo sapiens, UniProt Q9C0B0, residues 30-357)
UniProt Q9C0B0, sequence (30-357, looked up): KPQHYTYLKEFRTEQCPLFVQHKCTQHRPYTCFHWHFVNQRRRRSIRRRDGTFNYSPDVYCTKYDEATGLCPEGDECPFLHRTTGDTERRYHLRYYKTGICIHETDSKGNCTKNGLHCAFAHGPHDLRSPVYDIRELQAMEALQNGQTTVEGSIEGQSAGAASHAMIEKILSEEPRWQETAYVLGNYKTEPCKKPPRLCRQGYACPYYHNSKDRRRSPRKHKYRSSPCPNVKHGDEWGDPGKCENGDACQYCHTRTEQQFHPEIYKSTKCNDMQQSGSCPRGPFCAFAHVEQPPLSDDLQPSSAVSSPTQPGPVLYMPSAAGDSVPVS
Method: RNA Bind-n-Seq
Molecule type: RNA
Medium: in vitro
Tested at: not given
Notes: RNA with constant flanks, human-mouse chimeric sites, ends assumed
Relative to: input RNA pool
Direction: higher = stronger binding
Constant ends, left off below: GGGAGUUCUACAGUCCGACGAUC … CAACAGAGGAUUGAGCAUCA
| Oligonucleotide | bound/input enrichment |
| --- | --- |
| GAUCAUGAACCACCAUCAGAAAUGAAGAUGAGAUUACCCAGACGAGCCAAAACAGCUAGCACUAGAAAAAGUAAACUUAACCUUGCAGAGUUCCUUAAAUGAAGAUCAAGUUAAGAGAGC | 3.26 ratio |
| UCAGGAACCCAGACAAAUAUGAAUGUAAAUGAAGUCAUUAGCAACAGAGCAAUUGAAAUGUUAGGAGGUGAACUUGGCAGCAAGAUACCUGUGCACCCCAAUGAUCAUGUUAACAAAAGC | 0.424 ratio |
| AAAGUGAUGACUAUGUUUGUCCAACGACAGGUAUUUUCGGAGAGCAAGGAUGAGAUUGCUUUAGUCCUCUAUGGCACAGAUGGCACUGAUAAUGCCCUUGCUGGCAAGGACCAGUAUCAG | 0.134 ratio |
| CCCCAAUACCAUUUGCAGGUCUGGAACUGCACUCUCUUUAAAGUUUUACAUGUAUACAUUUUAGGGCUGUAGAUUUAUUUUCCUGGUUUCUUUUCCAAUUGCUGACUUUUGAGCACAGAA | 2.61 ratio |
| CCCUCCCCGGGCCACCCGCCCGCCCAAGCUCCCCGCCGAGAUCCAGGUUUCUUCUUAUUUCAUAGCCAAUAAGAAAAAUGUUCUACGCACAUUUUGUCCUCAGUAAACGAGGGCCUCUGG | 1.92 ratio |
| AGAGAUAAGACAUCCAGGAACAUGCGAGGCUCCCGGAUGAAUGGACUUCCAAGUCCCACUCACAGCGCCCACUGUAGCUUCUACCGAACCAGAACCUUGCAGGCACUGAGUAAUGAGAAG | 0.107 ratio |
| CUGGGCUUCUCUUUUCUUUCUUUCCUUAAAAGCCUAACUAAAGAUUAGGUUGUAAGAAAAACAGAAGCCAUGUUUCGAAGACCUGUGUUACAGGUAUUUCGUCAGUUUGUAAGACAUGAG | 0.233 ratio |

Study 4
Target: Histone acetyltransferase KAT6A, winged helix 2, GST fusion (KAT6A, Homo sapiens, UniProt Q92794, residues 85-181)
Method: protein binding microarray
Molecule type: double-stranded DNA, one strand shown
Medium: in vitro
Tested at: not given
Notes: 8-mer, flanks averaged, mean of 2 arrays, mostly near background
Relative to: not given
Direction: higher = stronger binding
Target sequence (chain): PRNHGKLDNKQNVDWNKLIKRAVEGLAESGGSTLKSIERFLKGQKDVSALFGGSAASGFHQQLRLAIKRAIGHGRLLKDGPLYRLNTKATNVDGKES
| Oligonucleotide | E-score |
| --- | --- |
| AAACCCTG | -0.00709 |
| CGTTGACA | -0.0635 |
| AAGTTATT | 0.104 |
| AGTATGGC | -0.0258 |
| GAGTCGCA | -0.141 |
| CCTCGGTC | -0.114 |
| CCATAAGC | -0.0176 |
| CTCCGCTC | 0.0833 |
| CACAGTGC | 0.0341 |
| CACAGCAA | 0.271 |
| AGGACAGA | 0.072 |
| AACCATTG | -0.0056 |
| CTGGCTAA | -0.0485 |
